Experimental data from different studies.
Each line is one published result; not all experiments were run side by side.
Target: Adenosine receptor A1 (ADORA1, Homo sapiens, UniProt P30542)
UniProt P30542, sequence (whole entry, looked up): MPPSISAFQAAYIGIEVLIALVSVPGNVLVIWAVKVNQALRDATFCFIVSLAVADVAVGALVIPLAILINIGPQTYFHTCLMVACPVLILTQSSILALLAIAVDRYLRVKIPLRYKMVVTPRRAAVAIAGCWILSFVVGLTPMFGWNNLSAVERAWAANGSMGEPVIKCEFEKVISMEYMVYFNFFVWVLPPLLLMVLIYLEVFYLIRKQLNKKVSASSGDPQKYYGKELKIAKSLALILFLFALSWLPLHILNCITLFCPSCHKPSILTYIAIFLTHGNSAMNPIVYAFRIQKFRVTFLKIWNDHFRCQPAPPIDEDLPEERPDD

`N#Cc1c(N)nc(SCc2ncc[nH]2)c(C#N)c1-c1cccc(F)c1` gave a Ki of 13 nM (ligand displacement, radioligand; cell membranes).
With `CCCn1c(=O)c2[nH]c(-c3ccc(OCC(=O)NCCNC(=O)CCCCCNC(=O)COc4ccc(/C=C/C5=[N+]6C(=Cc7ccc(-c8cccs8)n7[B-]6(F)F)C=C5)cc4)cc3)nc2n(CCC)c1=O` the Kd was 72.4 nM (CRE reporter gene, antagonist; CHO-A1; Gs response, PTX-pretreated overnight, together with: NECA and forskolin).
With `NC(=O)CNC(=O)[C@H]1O[C@@H](n2cnc3c(N)ncnc32)[C@H](O)[C@@H]1O` the Ki was 330 nM (ligand displacement, radioligand; cell membranes).
`CC(=O)Nc1ccc(-c2c(C#N)c(N)nc(SCc3ccccc3)c2C#N)cc1` has a Ki of 109 nM (ligand displacement, radioligand; cell membranes).
The Ki of `Nc1ncnc2c1ncn2[C@@H]1O[C@H](C(=O)NCC(F)F)[C@@H](O)[C@H]1O` is reported as 4.7 nM (ligand displacement, radioligand; cell membranes).
For `COc1ccc(-c2nc(CSc3nc(N)c(C#N)c(-c4ccccc4)c3C#N)cs2)cc1`, the Ki was 6.1 nM (ligand displacement, radioligand; cell membranes).
For `CCNC(=O)[C@H]1O[C@@H](n2cnc3c(NCCCCNC(=O)CCCCCNC(=O)CCC4=[N+]5C(=Cc6c(C)cc(C)n6[B-]5(F)F)C=C4)ncnc32)[C@H](O)[C@@H]1O`, the EC50 was > 10000 nM (reporter gene, agonist).
The Ki of `Nc1ncnc2c1ncn2[C@@H]1O[C@H](C(=O)NCCCF)[C@@H](O)[C@H]1O` is reported as 8.9 nM (ligand displacement, radioligand; cell membranes).
For `CN(C(=O)c1ccn2ncc(-c3ccc(C(N)=O)cc3)c2c1)c1ccc(C#N)cn1`, the IC50 was > 30000 nM (ligand displacement).
`CCNC(=O)[C@H]1O[C@@H](n2cnc3c(NCCCCNC(=O)CCN(C)c4ccc5nc6ccc(N(CC)CCCS(=O)(=O)[O-])cc6[o+]c5c4)ncnc32)[C@H](O)[C@@H]1O` gave an IC50 of 3550 nM (CRE reporter gene, agonist; CHO-A1; Gi-mediated inhibition, together with: forskolin).
